Assay results collected from several papers.
Each line is one published result; not all experiments were run side by side. Numbers after ± are the reported error.
TDP1: Tyrosyl-DNA phosphodiesterase 1 (TDP1, Homo sapiens, UniProt Q9NUW8)
UniProt Q9NUW8, sequence (whole entry, looked up): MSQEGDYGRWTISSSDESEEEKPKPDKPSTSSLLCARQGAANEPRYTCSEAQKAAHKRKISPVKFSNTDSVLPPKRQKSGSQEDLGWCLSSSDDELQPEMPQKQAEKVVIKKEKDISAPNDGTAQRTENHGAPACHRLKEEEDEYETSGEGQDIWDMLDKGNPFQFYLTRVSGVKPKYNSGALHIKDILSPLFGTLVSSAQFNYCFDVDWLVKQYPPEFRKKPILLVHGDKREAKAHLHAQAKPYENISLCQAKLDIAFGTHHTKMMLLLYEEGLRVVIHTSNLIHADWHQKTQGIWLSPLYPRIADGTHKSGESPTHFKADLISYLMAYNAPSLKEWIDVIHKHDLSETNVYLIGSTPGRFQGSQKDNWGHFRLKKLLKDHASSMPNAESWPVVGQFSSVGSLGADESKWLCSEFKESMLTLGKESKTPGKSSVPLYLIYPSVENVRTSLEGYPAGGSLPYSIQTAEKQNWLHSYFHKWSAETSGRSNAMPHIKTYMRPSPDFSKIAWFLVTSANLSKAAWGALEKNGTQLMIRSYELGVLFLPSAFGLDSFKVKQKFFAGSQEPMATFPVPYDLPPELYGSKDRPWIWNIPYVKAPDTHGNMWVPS

CCC(=O)N[C@@H](C)C(=O)OCC(=O)N[C@@H](C)C(=O)O  side-chain scission rate constant (water; pH 2, 50 °C): 0.004 h⁻¹
N[C@@H](CNC(=O)N[C@@H](CS)C(=O)NCC(=O)O)C(=O)O  GSH:GSSG ratio (mouse C57BL/6, Aβ i.c.v. model, brain homogenate; intranasal, dose not given; relative to: Aβ-only): 1.2 fold
Cc1cccc(C)c1CNc1cc(C(=O)N2CCC2)cn2c(C)c(C)nc12  inhibition (aspirin-induced gastric lesions; rat; oral, 2 mg/kg, 4 h; relative to: vehicle): 79.2%
COC1CN([C@H]2CC[C@H]([C@@]3(C)Oc4c(Cl)cc(C(=O)NCc5c(SC)cc(C)[nH]c5=O)c(C)c4O3)CC2)C1  log2 fold change (RNA-seq, item: RTN2 mouse homolog; mouse, HT-1376 xenograft, whole blood; dose not given; relative to: vehicle): 2.53
COc1ccc(C(=O)CCc2cc(C(CCc3ccc(O)cc3OC)c3ccc(O)cc3)c(O)cc2OC)cc1 (racemic)  12-HETE level (human blood; 3 µM, added: A23187): 12300 ± 4290 pg/mL
COCC1CN(C2CCN(c3cc(OC)c(Nc4ncc(Br)c(Nc5ccc6c(c5P(C)(C)=O)OCCO6)n4)cc3C)CC2)C1  progressive disease (RECIST 1.1; advanced EGFR-mutant NSCLC patients; 90 mg once daily): 100%
COCCOCCOCCNC(=O)Cc1cc(CC(=O)N[C@H]2C[C@H]3C(=O)Nc4cc(OCCOCCOCCOC)cc(n4)C(=O)N4CCC[C@H]4C(=O)Nc4cc(OCCOCCOCCOC)cc(n4)C(=O)N4CCC[C@H]4C(=O)Nc4cc(OCCOCCOCCOC)cc(n4)C(=O)N3C2)cc(CC(=O)N[C@H]2C[C@H]3C(=O)Nc4cc(OCCOCCOCCOC)cc(n4)C(=O)N4CCC[C@H]4C(=O)Nc4cc(OCCOCCOCCOC)cc(n4)C(=O)N4CCC[C@H]4C(=O)Nc4cc(OCCOCCOCCOC)cc(n4)C(=O)N3C2)c1  TΔS (anion binding, ITC; water; 298 K, stoichiometry fixed at 1.00, added: sodium chloride): 22.4 ± 3 kJ mol^–1
CC(=O)N1N=C(Nc2ccc(-c3ccc(NC4=NN(C(C)=O)C(c5ccc(O)cc5)C4)cc3)cc2)CC1c1ccc(O)cc1 (stereo not shown)  inhibition (carrageenan paw oedema; albino rat; oral, 50 mg/kg, 3 h): 27.2%
Cc1[nH]nc2c1N=C(c1ccccc1Cl)c1cnc(N3CCOCC3)cc1N2  tumour growth inhibition (mouse sample G TNBC PDX; oral, 15 mg/kg, 120 h, 5 days per week): 61%
CC(C)C[C@H](NC(=O)CNC(=O)[C@H](CCC(N)=O)NC(=O)[C@H](CC(C)C)NC(=O)[C@H](CC(C)C)NC(=O)[C@H](CCCNC(=N)N)NC(=O)[C@H](CCC(N)=O)NC(=O)[C@H](CC(C)C)NC(=O)[C@H](CCCNC(=N)N)NC(=O)[C@H](C)NC(=O)CNC(=O)[C@H](CCC(=O)O)NC(=O)[C@H](CCCNC(=N)N)NC(=O)[C@H](CC(C)C)NC(=O)[C@H](CCCNC(=N)N)NC(=O)[C@H](CO)NC(=O)[C@H](CC(C)C)NC(=O)[C@H](CCC(=O)O)NC(=O)[C@H](CO)NC(=O)[C@@H](NC(=O)[C@H](Cc1ccccc1)NC(=O)[C@@H](NC(=O)CNC(=O)[C@H](CC(=O)O)NC(=O)C(C)(C)NC(=O)[C@@H](N)Cc1c[nH]cn1)[C@@H](C)O)[C@@H](C)O)C(=O)N[C@@H](CC(C)C)C(=O)N[C@@H](CCC(N)=O)C(=O)NCC(=O)N[C@@H](CC(C)C)C(=O)N[C@H](C(=O)NCC(=O)N[C@@H](CCCCNC(=O)COCCOCCNC(=O)COCCOCCNC(=O)CC[C@H](NC(=O)CCCCCCCCCCCCCCCCC(=O)O)C(=O)O)C(N)=O)C(C)C  body weight lowering (DIO C57BL/6J mice; sc, 300 nmol/kg twice daily, 8 days, not significant): 2.5%
CC(CCC(=O)NCc1ccc(C(=O)NO)cc1)C1CCC2C3C(O)CC4CC(O)CCC4(C)C3CCC12C (stereo not shown)  relative abundance (item: Glyco-conj; PCK rat (Pkhd1 mutant), bile; oral gavage, dose not given, 5 months; relative to: total bile acids): 14.7%
CCCCCc1ccc(S(=O)(=O)N2CC2C(=O)OC)cc1 (stereo not shown)  tumour growth inhibition (mouse, Lewis lung carcinoma; intraperitoneal, 15 mg/kg, 16 doses, day 15): 67%
CN1CCOc2cc(C=NOCc3ccc(-c4nc5cc(-c6ccccc6)ccn5c4Nc4ccc(C(=O)O)cc4)cc3)cnc21  inhibition (TDP1; enzyme activity, inhibitor; 100 µM, unpurified compound): 94.2%
O=C(O)CN1CCN(CC(=O)O)CCN(CC(=O)NCCOCCOCCOCCOCCOCCOCCOCCOCCOCCOCCOCCNC(=O)CCCC(=O)Nc2ccc(-c3nnc(-c4ccccn4)nn3)nc2)CCN(CC(=O)O)CC1  second order rate constant (DPBS; 37 °C, added: TCO-PEG4): 73000 ± 5500 M⁻¹ s⁻¹
CC[C@H](C)[C@@H](C(=O)N[C@@H](CC(C)C)C(=O)N[C@@H](CO)C(=O)N[C@@H](CO)C(=O)N[C@H](C(=O)N[C@@H](CCC(=O)O)C(=O)N[C@H](C(=O)NCC(=O)N[C@@H](CO)C(=O)N[C@@H](CO)C(=O)N[C@H](C(=O)N1C[C@H](O)C[C@H]1C(N)=O)[C@@H](C)O)C(C)C)[C@@H](C)O)N(C)C(=O)[C@H](C)NC(=O)CN(C)C(=O)[C@H](Cc1ccccc1)NC(=O)[C@H](CO)NC(=O)[C@H](CO)NC(=O)[C@H](CCCNC(=N)N)NC(=O)[C@@H](NC(=O)[C@H](CC(C)C)NC(=O)[C@H](Cc1ccccc1)NC(=O)[C@H](Cc1c[nH]cn1)NC(=O)[C@H](C)NC(=O)[C@H](CC(C)C)NC(=O)[C@H](CCCNC(=N)N)NC(=O)[C@H](CCC(=O)O)NC(=O)[C@@H](NC(=O)[C@H](C)NC(=O)[C@@H]1CSSC[C@H](NC(=O)[C@H](CCCNC(=N)N)NC(=O)CC[C@H](NC(=O)CCCCCCCCCCCCCCCCCCC(=O)O)C(=O)O)C(=O)NCC(=O)N[C@@H]([C@@H](C)O)C(=O)N[C@@H](C)C(=O)N[C@@H]([C@@H](C)O)C(=O)N1)[C@@H](C)O)[C@@H](C)O  food intake (male Sprague-Dawley rats; subcutaneous, 30 nmol/kg single dose, 24 h; relative to: vehicle): 70.9 ± 1.7%
COc1cc(O)ccc1CCC(c1ccc(O)cc1)c1cc2c(c(C)c1O)OC(c1ccc(O)cc1)CC2 (mixture of isomers)  amount (item: arachidonic acid; human whole blood; 3 µM, added: Escherichia coli): 340000 ± 54800 pg/mL blood
N#CCCn1cc(C=NOCc2ccc(-c3nc4cc(-c5ccccc5)ccn4c3Nc3ccc(C(=O)O)cc3)cc2)c2ccccc21 (mixture of isomers)  inhibition (TDP1; enzyme activity, inhibitor; 100 µM, unpurified compound): 49.7%
CN1CCC[C@]1(C)/C=C/S(=O)(=O)NC(=O)Nc1c2c(cc3c1CCC3)CCC2  IL-1β inhibition (human, whole blood ex vivo; 12.5 mg twice daily, day 14, 24 h, multiple ascending dose, added: LPS and ATP): 41.7%
CC(=O)N1N=C(Nc2ccc(-c3ccc(NC4=NN(C(C)=O)C(c5ccccc5)C4)cc3)cc2)CC1c1ccccc1 (stereo not shown)  inhibition (carrageenan paw oedema; albino rat; oral, 50 mg/kg, 3 h; relative to: vehicle): 23.3%

Excerpt of the above:
COCCOCCOCCNC(=O)Cc1cc(CC(=O)N[C@H]2C[C@H]3C(=O)Nc4cc(OCCOCCOCCOC)cc(n4)C(=O)N4CCC[C@H]4C(=O)Nc4cc(OCCOCCOCCOC)cc(n4)C(=O)N4CCC[C@H]4C(=O)Nc4cc(OCCOCCOCCOC)cc(n4)C(=O)N3C2)cc(CC(=O)N[C@H]2C[C@H]3C(=O)Nc4cc(OCCOCCOCCOC)cc(n4)C(=O)N4CCC[C@H]4C(=O)Nc4cc(OCCOCCOCCOC)cc(n4)C(=O)N4CCC[C@H]4C(=O)Nc4cc(OCCOCCOCCOC)cc(n4)C(=O)N3C2)c1  TΔS (anion binding, ITC; water; 298 K, stoichiometry fixed at 1.00, added: sodium chloride): 22.4 ± 3 kJ mol^–1
Cc1cccc(C)c1CNc1cc(C(=O)N2CCC2)cn2c(C)c(C)nc12  inhibition (aspirin-induced gastric lesions; rat; oral, 2 mg/kg, 4 h; relative to: vehicle): 79.2%
